Measured values from different studies.
Numbered parts are unrelated; each lists some results of a single study.

Sample 1
Substance: PhoQ, residues 284 288 289 292 302 303 TLMATV
Technique: Sort-seq
Measured: YFP reporter
Matrix: E. coli
Notes: PhoQ-PhoP variant library
Added: 10 µM Mg2+
Relative to: high Mg2+ state
Direction: higher = stronger signaling
Quantity: fold induction
PhoP, residues 12 14 15 18 19 STHWV (Escherichia coli, UniProt P23836): 60.6
PhoP, residues 12 14 15 18 19 QYCSL (Escherichia coli, UniProt P23836): 8.08
PhoP, residues 12 14 15 18 19 SHWTV (Escherichia coli, UniProt P23836): 10.1

Sample 2
Target: Ras GTPase-activating protein-binding protein 1, full length (G3BP1, Homo sapiens, UniProt Q13283)
Sequence of UniProt Q13283 (whole entry, looked up): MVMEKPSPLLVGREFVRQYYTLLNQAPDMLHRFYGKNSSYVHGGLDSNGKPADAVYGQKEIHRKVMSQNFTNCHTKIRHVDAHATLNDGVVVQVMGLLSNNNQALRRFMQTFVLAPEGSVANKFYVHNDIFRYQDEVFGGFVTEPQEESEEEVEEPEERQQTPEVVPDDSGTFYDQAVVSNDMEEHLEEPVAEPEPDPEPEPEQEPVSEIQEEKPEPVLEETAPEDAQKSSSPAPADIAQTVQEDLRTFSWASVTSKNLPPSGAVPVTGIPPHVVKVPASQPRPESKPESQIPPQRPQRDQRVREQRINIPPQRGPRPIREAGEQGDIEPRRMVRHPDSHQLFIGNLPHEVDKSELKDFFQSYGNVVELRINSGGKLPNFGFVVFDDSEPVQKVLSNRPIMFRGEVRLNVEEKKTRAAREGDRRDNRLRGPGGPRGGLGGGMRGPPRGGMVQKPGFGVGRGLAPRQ
Technique: RNA Bind-n-Seq
Form: RNA
Matrix: in vitro
Tested at: 200 nM
Notes: whole 134-nt RNA, ends assumed
Added: 150 mM LiCl
Relative to: input library
Direction: higher = stronger binding
Quantity: log2 enrichment
Each molecule: 7-deaza-guanosine replaces G
Shared flanks, not repeated: GGGAGUUCUACAGUCCGACGAUC … UGGAAUUCUCGGGUGUCAAGG
CUGUGCUACACAUCGUAUGUACCGAAUCGGGCCCCCCCGGGGCCCCCCCGGGCCCCCCCGGAAAGUAUUAUGUUACGCCGUUCGGAUCUG: -0.548
GUCCUGUGCUACACAUCGUAUGUACCGAAUCGGGGAAAAAAAGGGGUUUGGGGAGGGGAAAGUAUUAUGUUACGCCGUUCGGAUCUGCAC: -1.23
UGCUGGCAGCCAAGCAGCAGCAGGAGAUGCUGGCAGCCAAGCGGCAGCAGGAGCUGGAGCAGCAGCGGCAGCGGGAGCAGCAGCGGCAGG: 0.113
CACAGACAACACGCACCCACACAGACACAGAGGGAAGGGGUUGGGAUGGGGACAGGGUGCACAGCAGGGCGGGGUAGGACCCCAGGCCCU: -1.37
UGUGUGACUUCCUUGGAGAGAAGAUUGCAUCUGUUUUGGGUAUCAGCACCCCAAAGUACCAAUAUGCCAUUGAUGAAUAUUAUCGGAUGA: -0.275
CUGUGCUACACAUCGUAUGUACCGAAUCGGGGAAAAAAAGGGGAAAAAAAGGAAAAAAAGGGAAAGUAUUAUGUUACGCCGUUCGGAUCU: 0.374
UCCUCAAGUCCUGUGCUACACAUCGUAUGUACCGAAUCGGGUGGGUGGUGGGAAAGUAUUAUGUUACGCCGUUCGGAUCUGCACUUCCAG: 0.773

Sample 3
Target: Centromere-binding protein 1, full length, N-terminal tag (CBF1, Saccharomyces cerevisiae, UniProt P17106, residues 1-351)
Sequence of UniProt P17106 (whole entry, looked up): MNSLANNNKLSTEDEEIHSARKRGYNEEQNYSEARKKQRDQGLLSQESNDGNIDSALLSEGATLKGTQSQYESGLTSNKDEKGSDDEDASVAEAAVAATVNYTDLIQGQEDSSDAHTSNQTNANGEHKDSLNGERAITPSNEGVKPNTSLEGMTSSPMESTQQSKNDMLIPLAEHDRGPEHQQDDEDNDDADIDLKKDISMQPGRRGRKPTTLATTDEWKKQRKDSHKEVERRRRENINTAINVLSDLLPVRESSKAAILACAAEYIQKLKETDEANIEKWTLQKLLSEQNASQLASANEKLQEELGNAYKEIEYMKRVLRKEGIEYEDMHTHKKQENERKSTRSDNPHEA
Technique: protein-binding microarray
Form: double-stranded DNA, one strand shown
Matrix: in vitro
Tested at: 0.8 µM
Notes: whole 60-bp probe, no competitor
Direction: higher = stronger binding
Quantity: fluorescence intensity
Shared flanks, not repeated: … GTCTTGATTCGCTTGACGCTGCTG
GAAACTTAAAAACTTCAAATCACGTATGAAAAATAG: 711 a.u.
TGTACGAAGCTATTCCACGTGACTATAGTAGTTAGG: 11700 a.u.
CTAAAACGAAGAAAGCACGTGAGGATTGAAGAATTC: 5040 a.u.
GAACTTCTTTTTCGGCATGTGATAATATACTGGTAG: 2090 a.u.
CTAAAGCATCAACACCATGTGCATACCATACCGTTC: 577 a.u.
CTAATCTATTATTTATACGTGACATACCATTACTTC: 719 a.u.
GAATAGTTTTACAGACGCGTCACCTGCTATCAATAG: 2790 a.u.
CTAGCGCTCCTGCCGCACGCTTTGTTCCTTTTCTTC: 516 a.u.

Sample 4
Target: Histone acetyltransferase KAT6A, winged helix 1, GST fusion (KAT6A, Homo sapiens, UniProt Q92794, residues 1-85)
Technique: protein binding microarray
Form: double-stranded DNA, one strand shown
Matrix: in vitro
Tested at: not given
Notes: 8-mer, flanks averaged, mean of 2 arrays, mostly near background
Relative to: not given
Direction: higher = stronger binding
Quantity: E-score
Target sequence (chain): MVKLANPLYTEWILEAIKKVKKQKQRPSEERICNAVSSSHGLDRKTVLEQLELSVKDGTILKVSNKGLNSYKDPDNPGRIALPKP
AGTCGTGC: -0.0407
ACCAGAGC: -0.0502
AGCTGGCG: 0.0442
AGCTTCCC: 0.0329
AGAAGACT: -0.151
GGGTTAGA: 0.0424
TCCATCAA: -0.182
AGGGACCG: 0.104

Repeated from above (sample 1):
PhoP, residues 12 14 15 18 19 QYCSL (Escherichia coli, UniProt P23836): 8.08
PhoP, residues 12 14 15 18 19 SHWTV (Escherichia coli, UniProt P23836): 10.1
